Assay results pooled from the literature.
Parts stem from different laboratories: compare values within a part only.
Sequence of UniProt P42679 (whole entry, looked up): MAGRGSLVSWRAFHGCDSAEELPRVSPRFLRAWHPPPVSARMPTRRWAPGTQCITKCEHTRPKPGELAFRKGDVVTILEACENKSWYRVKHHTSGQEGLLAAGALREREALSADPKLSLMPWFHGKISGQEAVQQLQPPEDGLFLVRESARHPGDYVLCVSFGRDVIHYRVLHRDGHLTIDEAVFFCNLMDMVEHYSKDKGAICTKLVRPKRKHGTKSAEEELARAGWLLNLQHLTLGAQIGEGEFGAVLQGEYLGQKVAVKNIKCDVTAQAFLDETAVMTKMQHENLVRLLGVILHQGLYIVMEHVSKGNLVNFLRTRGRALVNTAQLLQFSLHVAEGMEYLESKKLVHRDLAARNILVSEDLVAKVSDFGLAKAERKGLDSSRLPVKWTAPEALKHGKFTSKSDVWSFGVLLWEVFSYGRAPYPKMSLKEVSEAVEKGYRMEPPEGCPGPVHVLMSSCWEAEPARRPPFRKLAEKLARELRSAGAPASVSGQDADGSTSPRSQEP
Sequence of UniProt Q9UBF8 (whole entry, looked up): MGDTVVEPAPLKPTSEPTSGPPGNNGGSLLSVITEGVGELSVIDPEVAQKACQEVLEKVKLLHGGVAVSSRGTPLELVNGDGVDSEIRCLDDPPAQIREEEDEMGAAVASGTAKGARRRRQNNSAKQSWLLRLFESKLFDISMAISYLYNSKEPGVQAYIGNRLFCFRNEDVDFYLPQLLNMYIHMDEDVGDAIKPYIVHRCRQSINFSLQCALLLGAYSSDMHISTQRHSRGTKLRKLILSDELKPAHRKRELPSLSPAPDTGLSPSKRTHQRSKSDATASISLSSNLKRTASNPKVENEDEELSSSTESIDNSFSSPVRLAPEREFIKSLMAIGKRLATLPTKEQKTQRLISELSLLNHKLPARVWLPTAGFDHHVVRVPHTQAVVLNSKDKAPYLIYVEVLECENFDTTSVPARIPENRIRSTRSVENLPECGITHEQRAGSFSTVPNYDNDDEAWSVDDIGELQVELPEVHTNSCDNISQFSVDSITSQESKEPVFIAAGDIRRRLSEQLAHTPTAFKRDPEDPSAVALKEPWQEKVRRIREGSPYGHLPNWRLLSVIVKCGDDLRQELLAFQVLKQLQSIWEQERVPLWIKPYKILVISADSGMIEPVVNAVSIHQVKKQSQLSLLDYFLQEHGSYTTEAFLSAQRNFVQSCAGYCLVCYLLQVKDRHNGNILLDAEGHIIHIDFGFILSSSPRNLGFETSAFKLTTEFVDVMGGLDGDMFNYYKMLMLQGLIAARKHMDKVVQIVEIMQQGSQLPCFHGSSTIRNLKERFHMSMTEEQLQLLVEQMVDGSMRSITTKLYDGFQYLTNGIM
Sequence of UniProt Q12866 (whole entry, looked up): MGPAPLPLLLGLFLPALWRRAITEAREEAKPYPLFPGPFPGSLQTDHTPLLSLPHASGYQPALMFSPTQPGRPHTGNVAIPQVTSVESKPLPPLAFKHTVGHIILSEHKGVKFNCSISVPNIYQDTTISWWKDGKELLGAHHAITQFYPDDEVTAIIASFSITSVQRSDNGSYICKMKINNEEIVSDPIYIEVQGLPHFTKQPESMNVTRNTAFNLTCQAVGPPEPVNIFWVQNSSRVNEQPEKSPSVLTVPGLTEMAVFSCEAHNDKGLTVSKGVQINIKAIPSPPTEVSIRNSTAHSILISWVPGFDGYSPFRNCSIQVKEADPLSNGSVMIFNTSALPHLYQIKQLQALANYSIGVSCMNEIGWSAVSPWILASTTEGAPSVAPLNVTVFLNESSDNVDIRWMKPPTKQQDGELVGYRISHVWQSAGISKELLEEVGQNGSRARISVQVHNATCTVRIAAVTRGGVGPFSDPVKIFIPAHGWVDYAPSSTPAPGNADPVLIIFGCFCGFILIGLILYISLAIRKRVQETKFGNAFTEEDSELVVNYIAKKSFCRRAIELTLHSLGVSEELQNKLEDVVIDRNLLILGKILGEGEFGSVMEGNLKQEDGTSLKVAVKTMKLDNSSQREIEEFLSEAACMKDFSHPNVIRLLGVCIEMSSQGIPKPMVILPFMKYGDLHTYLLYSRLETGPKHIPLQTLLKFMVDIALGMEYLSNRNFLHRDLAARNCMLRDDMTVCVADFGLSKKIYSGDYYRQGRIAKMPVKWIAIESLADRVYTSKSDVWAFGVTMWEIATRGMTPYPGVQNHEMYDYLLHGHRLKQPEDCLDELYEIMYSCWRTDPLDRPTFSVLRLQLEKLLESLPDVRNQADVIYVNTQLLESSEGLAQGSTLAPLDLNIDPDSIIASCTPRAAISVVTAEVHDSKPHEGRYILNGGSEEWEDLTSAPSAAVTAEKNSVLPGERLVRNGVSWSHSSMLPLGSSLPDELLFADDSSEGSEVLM
Sequence of UniProt P50750 (whole entry, looked up): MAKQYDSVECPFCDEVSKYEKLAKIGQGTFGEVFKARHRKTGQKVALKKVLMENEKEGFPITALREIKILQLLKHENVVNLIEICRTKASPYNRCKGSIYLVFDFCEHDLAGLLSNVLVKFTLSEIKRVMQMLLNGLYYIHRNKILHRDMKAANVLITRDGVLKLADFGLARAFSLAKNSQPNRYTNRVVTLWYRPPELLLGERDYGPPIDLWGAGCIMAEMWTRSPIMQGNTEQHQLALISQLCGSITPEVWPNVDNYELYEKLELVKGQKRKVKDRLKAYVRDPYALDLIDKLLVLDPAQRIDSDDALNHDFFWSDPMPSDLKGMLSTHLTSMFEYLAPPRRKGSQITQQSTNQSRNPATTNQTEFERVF
Sequence of UniProt P78368 (whole entry, looked up): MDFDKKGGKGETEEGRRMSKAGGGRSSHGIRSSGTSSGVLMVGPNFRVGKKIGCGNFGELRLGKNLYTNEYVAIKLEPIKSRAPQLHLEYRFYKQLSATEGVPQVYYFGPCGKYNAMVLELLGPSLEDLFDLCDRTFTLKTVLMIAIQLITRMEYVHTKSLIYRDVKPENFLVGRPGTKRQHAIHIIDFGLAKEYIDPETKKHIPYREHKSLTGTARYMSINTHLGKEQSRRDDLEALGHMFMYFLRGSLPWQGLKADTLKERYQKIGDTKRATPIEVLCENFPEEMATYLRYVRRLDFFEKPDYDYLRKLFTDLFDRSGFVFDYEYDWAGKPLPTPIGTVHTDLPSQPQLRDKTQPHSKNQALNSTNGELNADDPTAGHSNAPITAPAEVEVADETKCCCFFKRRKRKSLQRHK
Sequence of UniProt Q06418 (whole entry, looked up): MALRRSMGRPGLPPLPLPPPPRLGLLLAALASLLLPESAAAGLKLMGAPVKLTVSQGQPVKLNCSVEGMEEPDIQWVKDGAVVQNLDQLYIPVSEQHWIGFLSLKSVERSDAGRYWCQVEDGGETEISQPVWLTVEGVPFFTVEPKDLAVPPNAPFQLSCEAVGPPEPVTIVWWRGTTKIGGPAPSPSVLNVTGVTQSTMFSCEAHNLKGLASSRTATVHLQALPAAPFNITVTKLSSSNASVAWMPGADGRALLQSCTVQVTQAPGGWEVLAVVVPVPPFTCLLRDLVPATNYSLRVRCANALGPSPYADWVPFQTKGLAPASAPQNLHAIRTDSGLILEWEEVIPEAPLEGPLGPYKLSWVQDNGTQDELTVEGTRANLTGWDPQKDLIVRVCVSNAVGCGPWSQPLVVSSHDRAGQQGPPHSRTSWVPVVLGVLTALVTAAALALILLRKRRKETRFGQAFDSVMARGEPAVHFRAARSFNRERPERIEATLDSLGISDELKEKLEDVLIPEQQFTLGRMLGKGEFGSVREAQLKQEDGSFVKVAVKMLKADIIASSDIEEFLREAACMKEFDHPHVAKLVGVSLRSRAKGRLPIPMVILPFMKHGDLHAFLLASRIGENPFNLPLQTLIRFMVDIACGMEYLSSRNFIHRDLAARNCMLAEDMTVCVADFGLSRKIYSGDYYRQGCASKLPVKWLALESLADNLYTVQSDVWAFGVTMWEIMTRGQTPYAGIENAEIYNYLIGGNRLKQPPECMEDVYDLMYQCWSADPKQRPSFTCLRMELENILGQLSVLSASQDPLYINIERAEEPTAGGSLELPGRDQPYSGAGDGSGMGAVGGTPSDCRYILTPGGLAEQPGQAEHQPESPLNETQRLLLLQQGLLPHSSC

Sample 1 — effect on: enzyme activity; action: inhibitor; tested at: 0.5 µM; reference: control; endpoint: remaining activity
Target: Phosphorylase b kinase gamma catalytic chain, liver/testis isoform (PHKG2, Homo sapiens, UniProt P15735)
Sequence of UniProt P15735 (whole entry, looked up): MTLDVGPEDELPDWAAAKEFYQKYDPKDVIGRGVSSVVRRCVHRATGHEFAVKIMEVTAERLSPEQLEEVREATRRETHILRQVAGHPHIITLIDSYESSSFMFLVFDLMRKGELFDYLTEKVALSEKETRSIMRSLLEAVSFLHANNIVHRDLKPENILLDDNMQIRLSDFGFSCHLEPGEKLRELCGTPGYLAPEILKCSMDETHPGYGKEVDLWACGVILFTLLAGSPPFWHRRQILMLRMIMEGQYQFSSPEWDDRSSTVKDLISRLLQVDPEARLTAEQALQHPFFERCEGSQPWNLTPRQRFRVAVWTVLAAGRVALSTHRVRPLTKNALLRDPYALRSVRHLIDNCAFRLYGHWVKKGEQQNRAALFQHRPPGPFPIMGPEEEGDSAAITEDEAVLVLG
COc1cc2ncnc(Nc3ccc(OCc4ccccc4)cc3)c2cc1OC: 97.4%
O=C(Nc1ccc(Cl)cc1)c1ccccc1NCc1ccncc1: 97.1%
O=C1NC(=O)/C(=C/c2ccc3nccnc3c2)S1: 97.4%
COc1ccc(Cl)cc1NC(=O)Nc1cc(C)nc2ccccc12: 98.6%
COc1cc2ncc(-c3ccccc3)nc2cc1OC: 97.1%
CCC(=O)Nc1ccc2ncnc(Nc3cccc(Br)c3)c2c1: 109%
Cn1cc(/C=C2\C(=O)Nc3ccc(S(N)(=O)=O)cc32)c2ccccc21: 52%
CN(C)CCCn1cc(C2=C(c3c[nH]c4ccccc34)C(=O)NC2=O)c2ccccc21: 97.9%
Cc1nc(Nc2ncc(C(=O)Nc3c(C)cccc3Cl)s2)cc(N2CCN(CCO)CC2)n1: 101%
CCOc1cc2ncnc(Nc3cccc(Br)c3)c2cc1OCC: 101%
CC(C)c1nn(-c2c(Cl)cccc2Cl)c2nc(Cc3ccc(OCCO)cc3)[nH]c(=O)c12: 102%
COc1ccc(-c2cnc3c(-c4ccsc4)cnn3c2)cc1: 92.3%
CC(C)[C@H](CO)Nc1nc(Nc2cccc(Cl)c2)c2ncn(C(C)C)c2n1: 117%
CCN1/C(=C/C(C)=O)Sc2ccc(OC)cc21: 94.6%
Cn1cnc2cc3c(Nc4cccc(Br)c4)ncnc3cc21: 103%
Nc1[nH]nc2nnc(-c3c(-c4ccccc4)nn4ccccc34)cc12: 82.6%
O=c1cc(N2CCOCC2)oc2c1ccc1ccccc12: 99.8%
CC(=O)O/N=C1/C(c2c(O)[nH]c3cc(Br)ccc23)=Nc2ccccc21: 96.6%
C[S+]([O-])c1ccc(-c2nc(-c3ccncc3)c(-c3ccc(F)cc3)[nH]2)cc1 (stereo not drawn): 102%
COc1cc2ncnc(N3CCN(C(=O)Nc4ccc(Oc5ccccc5)cc4)CC3)c2cc1OC: 128%

Sample 2 — tested at: 5 µM; endpoint: remaining compound
Structure (SMILES): CC(=O)N[C@@H](Cc1c[nH]c2ccccc12)C(=O)N[C@@H](CCC(=O)C=[N+]=[N-])C(=O)OC(C)C
mouse intestinal homogenate; 1 h, with: bestatin 10 µM: 0.4%
mouse EL4 tumour homogenate; 0 h, with: E64 10 µM: 100%
mouse EL4 tumour homogenate; 1 h, with: dichlorvos 500 µM: 36%
mouse intestinal homogenate; 1 h, with: E64 10 µM: 0.188%
mouse EL4 tumour homogenate; 1 h, with: E64 10 µM: 0.161%
mouse intestinal homogenate; 0 h, with: bestatin 10 µM: 100%
mouse intestinal homogenate; 0.05 h, with: leupeptin 100 µM: 12.1%
mouse, EL4 tumour homogenate; 0.05 h, with: leupeptin 100 µM: 0.151%
mouse EL4 tumour homogenate; 0 h, with: aprotinin 0.8 µM: 100%
mouse intestinal homogenate; 0.05 h, no inhibitor: 0.288%
mouse EL4 tumour homogenate; 0 h, with: bestatin 10 µM: 100%
mouse intestinal homogenate; 0.05 h, with: dichlorvos 500 µM: 93%
mouse, EL4 tumour homogenate; 0.05 h, with: Pefabloc 1 mM: 96.1%
mouse intestinal homogenate; 0.05 h, with: aprotinin 0.8 µM: 12.9%
mouse intestinal homogenate; 0 h, with: dichlorvos 500 µM: 100%
mouse EL4 tumour homogenate; 0.05 h, with: aprotinin 0.8 µM: 0.207%
mouse intestinal homogenate; 1 h, with: aprotinin 0.8 µM: 5.58%
mouse EL4 tumour homogenate; 0 h, with: protease inhibitor mix: 100%

Sample 3 — tested at: 1 µM; endpoint: remaining binding
SMILES: CC(=O)c1c(NS(C)(=O)=O)c2cc(-c3ccc(Cl)cc3)c(-c3ccc(Cl)cc3Cl)nc2n(C)c1=O
CDK11B (Homo sapiens, UniProt P21127); cell-free assay, competition with immobilised ligand: 84%
GRK2 (Homo sapiens, UniProt P25098); cell-free assay, competition with immobilised ligand: 74%
PRKACB (Homo sapiens, UniProt P22694); cell-free assay, competition with immobilised ligand: 92%
CSNK1G2 (Homo sapiens, UniProt P78368); cell-free assay, competition with immobilised ligand: 100%
Tyrosine-protein kinase JAK1, JH2 (JAK1, Homo sapiens, UniProt P23458); cell-free assay, competition with immobilised ligand: 93%
ANKK1 (Homo sapiens, UniProt Q8NFD2); cell-free assay, competition with immobilised ligand: 70%
TYRO3 (Homo sapiens, UniProt Q06418); cell-free assay, competition with immobilised ligand: 64%
MATK (Homo sapiens, UniProt P42679); cell-free assay, competition with immobilised ligand: 83%
PTK2 (Homo sapiens, UniProt Q05397); cell-free assay, competition with immobilised ligand: 100%
FES (Homo sapiens, UniProt P07332); cell-free assay, competition with immobilised ligand: 87%
FLT3 (Homo sapiens, UniProt P36888, N841I); cell-free assay, competition with immobilised ligand: 100%
STK17B (Homo sapiens, UniProt O94768); cell-free assay, competition with immobilised ligand: 100%
CDK9 (Homo sapiens, UniProt P50750); cell-free assay, competition with immobilised ligand: 91%
EPHB3 (Homo sapiens, UniProt P54753); cell-free assay, competition with immobilised ligand: 100%
PRKACA (Homo sapiens, UniProt P17612); cell-free assay, competition with immobilised ligand: 100%
MERTK (Homo sapiens, UniProt Q12866); cell-free assay, competition with immobilised ligand: 100%
PTK6 (Homo sapiens, UniProt Q13882); cell-free assay, competition with immobilised ligand: 100%
Tyrosine-protein kinase ABL1, phosphorylated (ABL1, Homo sapiens, UniProt P00519, F317I); binding: 85%
PI4KB (Homo sapiens, UniProt Q9UBF8); cell-free assay, competition with immobilised ligand: 74%
GSK3A (Homo sapiens, UniProt P49840); cell-free assay, competition with immobilised ligand: 75%
SYK (Homo sapiens, UniProt P43405); cell-free assay, competition with immobilised ligand: 100%
BUB1 (Homo sapiens, UniProt O43683); cell-free assay, competition with immobilised ligand: 76%
Ribosomal protein S6 kinase alpha-5, C-terminal kinase domain (RPS6KA5, Homo sapiens, UniProt O75582); cell-free assay, competition with immobilised ligand: 72%
TEK (Homo sapiens, UniProt Q02763); cell-free assay, competition with immobilised ligand: 90%
ALK (Homo sapiens, UniProt Q9UM73); cell-free assay, competition with immobilised ligand: 95%

Sample 4 — effect on: enzyme activity; action: inhibitor; tested at: 10 µM; endpoint: inhibition
Target: Calcium/calmodulin-dependent protein kinase type II subunit alpha (CAMK2A, Homo sapiens, UniProt Q9UQM7)
Sequence of UniProt Q9UQM7 (whole entry, looked up): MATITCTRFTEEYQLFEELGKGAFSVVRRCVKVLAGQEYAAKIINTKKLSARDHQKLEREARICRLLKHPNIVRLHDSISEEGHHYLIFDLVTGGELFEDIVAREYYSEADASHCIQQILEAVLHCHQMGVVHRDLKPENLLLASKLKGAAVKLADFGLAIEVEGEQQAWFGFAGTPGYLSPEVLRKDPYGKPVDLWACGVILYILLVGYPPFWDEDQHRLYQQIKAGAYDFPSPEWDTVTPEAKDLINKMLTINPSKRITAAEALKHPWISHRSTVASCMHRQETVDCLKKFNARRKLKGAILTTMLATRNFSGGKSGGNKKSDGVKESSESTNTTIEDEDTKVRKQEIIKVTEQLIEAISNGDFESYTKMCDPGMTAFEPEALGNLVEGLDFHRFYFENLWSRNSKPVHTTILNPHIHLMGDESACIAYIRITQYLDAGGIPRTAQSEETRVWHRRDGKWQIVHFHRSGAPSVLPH
C[C@H](O)[C@H](N)C(=O)O: -46%
Cc1cccc(C)c1N(CC(=O)Nc1ccc(-c2ncon2)cc1)C(=O)C1CCS(=O)(=O)CC1: -9%
C=C[C@H]1[C@H](O[C@@H]2O[C@H](CO)[C@@H](O)[C@H](O)[C@H]2O)OC=C(C(=O)OC)[C@H]1CCOC(=O)c1cc(O)c(O)c(O)c1: 12%
CSC[C@H](N)C(=O)O: -10%
CCC[C@H](N[C@@H](C)C(=O)N1[C@H](C(=O)O)C[C@@H]2CCCC[C@@H]21)C(=O)OCC: -2%
C=CC(C)(O)CCC=C(C)CCC=C(C)C (mixture of isomers): -15%
CC(=O)Oc1cccc2c1C(=O)c1c(OC(C)=O)cc(C(=O)O)cc1C2=O: 30%
O=C(O)C(O)Cc1cc2ccccc2[nH]1 (stereo not drawn): 28%
C=C(C)[C@@H]1CC[C@]2(CO)CC[C@]3(C)[C@H](CC[C@@H]4[C@@]5(C)CC[C@H](O)C(C)(C)[C@@H]5CC[C@]43C)[C@@H]12: -30%
O=C(O)c1ccc(O)c(O)c1: -45%
C=CCOc1ccccc1OCC(O)CNC(C)C (stereo not drawn): -14%
CC1=C[C@H]2[C@@H](CC1)[C@H](C)CC[C@H]2[C@@H](C)C(=O)O: -17%

Some of these lines once more (sample 3):
ALK (Homo sapiens, UniProt Q9UM73); cell-free assay, competition with immobilised ligand: 95%
FES (Homo sapiens, UniProt P07332); cell-free assay, competition with immobilised ligand: 87%
MERTK (Homo sapiens, UniProt Q12866); cell-free assay, competition with immobilised ligand: 100%
PTK2 (Homo sapiens, UniProt Q05397); cell-free assay, competition with immobilised ligand: 100%
GRK2 (Homo sapiens, UniProt P25098); cell-free assay, competition with immobilised ligand: 74%
Tyrosine-protein kinase JAK1, JH2 (JAK1, Homo sapiens, UniProt P23458); cell-free assay, competition with immobilised ligand: 93%
CDK9 (Homo sapiens, UniProt P50750); cell-free assay, competition with immobilised ligand: 91%
FLT3 (Homo sapiens, UniProt P36888, N841I); cell-free assay, competition with immobilised ligand: 100%
MATK (Homo sapiens, UniProt P42679); cell-free assay, competition with immobilised ligand: 83%
Tyrosine-protein kinase ABL1, phosphorylated (ABL1, Homo sapiens, UniProt P00519, F317I); binding: 85%
EPHB3 (Homo sapiens, UniProt P54753); cell-free assay, competition with immobilised ligand: 100%
